Experimental data of several laboratories.
Parts stem from different laboratories: compare values within a part only. Substitutions count along the parent as printed.
Sequence of UniProt Q9UL54 (whole entry, looked up): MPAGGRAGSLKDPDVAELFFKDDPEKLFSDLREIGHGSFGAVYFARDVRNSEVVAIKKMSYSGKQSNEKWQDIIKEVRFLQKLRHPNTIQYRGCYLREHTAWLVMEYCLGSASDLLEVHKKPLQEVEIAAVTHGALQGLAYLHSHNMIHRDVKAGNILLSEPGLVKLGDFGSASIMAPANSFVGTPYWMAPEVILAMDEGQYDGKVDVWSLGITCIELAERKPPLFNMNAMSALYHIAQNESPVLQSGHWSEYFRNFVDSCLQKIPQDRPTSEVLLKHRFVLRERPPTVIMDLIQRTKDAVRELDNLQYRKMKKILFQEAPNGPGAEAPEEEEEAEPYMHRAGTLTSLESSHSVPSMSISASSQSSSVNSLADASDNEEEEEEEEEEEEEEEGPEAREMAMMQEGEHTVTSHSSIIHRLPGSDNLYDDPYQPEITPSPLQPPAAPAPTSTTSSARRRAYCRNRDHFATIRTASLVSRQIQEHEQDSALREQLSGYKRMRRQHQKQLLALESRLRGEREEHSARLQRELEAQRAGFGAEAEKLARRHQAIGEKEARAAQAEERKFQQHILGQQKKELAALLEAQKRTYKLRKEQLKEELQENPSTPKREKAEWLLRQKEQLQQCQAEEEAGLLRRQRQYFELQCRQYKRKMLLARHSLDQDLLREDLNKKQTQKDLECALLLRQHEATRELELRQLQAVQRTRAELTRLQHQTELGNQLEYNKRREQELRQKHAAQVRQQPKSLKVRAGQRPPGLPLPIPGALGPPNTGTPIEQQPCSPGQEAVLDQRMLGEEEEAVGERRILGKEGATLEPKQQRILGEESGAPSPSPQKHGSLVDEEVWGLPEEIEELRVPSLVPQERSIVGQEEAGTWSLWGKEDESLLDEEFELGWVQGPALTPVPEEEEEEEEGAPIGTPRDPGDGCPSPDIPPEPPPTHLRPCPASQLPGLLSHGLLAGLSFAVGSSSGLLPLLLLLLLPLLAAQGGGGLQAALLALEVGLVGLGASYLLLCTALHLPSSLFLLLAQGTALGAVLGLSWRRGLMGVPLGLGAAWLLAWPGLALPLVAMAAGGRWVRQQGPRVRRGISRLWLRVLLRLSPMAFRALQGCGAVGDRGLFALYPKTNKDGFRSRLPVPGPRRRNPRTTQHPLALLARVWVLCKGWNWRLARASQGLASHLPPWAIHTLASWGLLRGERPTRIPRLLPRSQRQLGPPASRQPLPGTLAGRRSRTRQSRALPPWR
Sequence of UniProt Q9UHD2 (whole entry, looked up): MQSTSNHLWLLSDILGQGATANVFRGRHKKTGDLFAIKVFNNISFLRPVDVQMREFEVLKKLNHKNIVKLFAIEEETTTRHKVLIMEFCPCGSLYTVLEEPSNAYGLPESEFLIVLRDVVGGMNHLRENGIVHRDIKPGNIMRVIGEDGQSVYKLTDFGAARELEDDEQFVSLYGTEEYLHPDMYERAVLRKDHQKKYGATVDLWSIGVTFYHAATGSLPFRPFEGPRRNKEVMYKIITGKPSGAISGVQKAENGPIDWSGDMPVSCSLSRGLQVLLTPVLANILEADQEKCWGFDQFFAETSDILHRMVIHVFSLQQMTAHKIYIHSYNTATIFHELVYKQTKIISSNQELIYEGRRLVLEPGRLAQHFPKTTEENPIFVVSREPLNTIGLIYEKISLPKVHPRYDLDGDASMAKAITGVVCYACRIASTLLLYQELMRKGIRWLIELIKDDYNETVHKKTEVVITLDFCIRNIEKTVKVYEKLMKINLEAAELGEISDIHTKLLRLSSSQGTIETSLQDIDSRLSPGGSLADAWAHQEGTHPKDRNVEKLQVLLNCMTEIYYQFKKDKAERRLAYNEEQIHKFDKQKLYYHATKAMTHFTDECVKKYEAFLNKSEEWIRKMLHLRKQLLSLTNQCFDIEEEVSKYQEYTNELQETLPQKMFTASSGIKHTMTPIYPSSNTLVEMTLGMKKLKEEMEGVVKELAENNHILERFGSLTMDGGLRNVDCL
Sequence of UniProt Q9Y2K2 (whole entry, looked up): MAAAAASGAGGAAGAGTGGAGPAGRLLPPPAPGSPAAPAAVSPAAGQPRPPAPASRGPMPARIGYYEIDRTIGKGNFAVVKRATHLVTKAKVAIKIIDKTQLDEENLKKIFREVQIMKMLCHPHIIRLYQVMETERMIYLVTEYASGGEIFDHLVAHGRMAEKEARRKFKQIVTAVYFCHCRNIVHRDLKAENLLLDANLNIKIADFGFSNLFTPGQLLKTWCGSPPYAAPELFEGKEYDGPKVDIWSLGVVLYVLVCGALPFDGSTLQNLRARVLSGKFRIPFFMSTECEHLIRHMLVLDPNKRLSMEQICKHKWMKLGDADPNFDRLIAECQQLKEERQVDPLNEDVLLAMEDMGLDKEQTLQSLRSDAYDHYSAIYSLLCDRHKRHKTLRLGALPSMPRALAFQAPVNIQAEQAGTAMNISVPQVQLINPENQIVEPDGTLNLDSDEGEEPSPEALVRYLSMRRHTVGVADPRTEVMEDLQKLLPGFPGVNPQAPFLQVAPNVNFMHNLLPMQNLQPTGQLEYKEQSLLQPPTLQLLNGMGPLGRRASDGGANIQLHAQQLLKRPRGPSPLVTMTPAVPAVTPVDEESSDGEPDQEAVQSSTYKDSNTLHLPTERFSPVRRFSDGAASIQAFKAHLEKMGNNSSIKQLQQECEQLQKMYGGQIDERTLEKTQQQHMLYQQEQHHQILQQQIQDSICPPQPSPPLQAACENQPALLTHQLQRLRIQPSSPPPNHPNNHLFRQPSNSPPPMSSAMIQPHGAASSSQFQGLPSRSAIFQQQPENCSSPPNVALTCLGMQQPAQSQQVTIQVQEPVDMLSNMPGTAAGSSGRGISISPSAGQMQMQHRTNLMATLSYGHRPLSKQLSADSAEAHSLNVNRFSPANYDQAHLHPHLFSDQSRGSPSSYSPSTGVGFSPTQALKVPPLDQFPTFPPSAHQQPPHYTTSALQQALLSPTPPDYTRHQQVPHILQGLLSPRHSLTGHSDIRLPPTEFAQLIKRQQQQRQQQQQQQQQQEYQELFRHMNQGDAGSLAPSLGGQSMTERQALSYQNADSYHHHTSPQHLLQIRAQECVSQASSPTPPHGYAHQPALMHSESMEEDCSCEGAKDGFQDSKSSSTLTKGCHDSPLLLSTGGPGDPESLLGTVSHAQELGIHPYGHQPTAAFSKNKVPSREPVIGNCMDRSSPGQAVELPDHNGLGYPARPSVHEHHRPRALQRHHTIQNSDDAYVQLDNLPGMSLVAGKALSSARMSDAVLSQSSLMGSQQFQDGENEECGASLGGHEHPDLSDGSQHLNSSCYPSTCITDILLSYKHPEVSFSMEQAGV
Sequence of UniProt P32298 (whole entry, looked up): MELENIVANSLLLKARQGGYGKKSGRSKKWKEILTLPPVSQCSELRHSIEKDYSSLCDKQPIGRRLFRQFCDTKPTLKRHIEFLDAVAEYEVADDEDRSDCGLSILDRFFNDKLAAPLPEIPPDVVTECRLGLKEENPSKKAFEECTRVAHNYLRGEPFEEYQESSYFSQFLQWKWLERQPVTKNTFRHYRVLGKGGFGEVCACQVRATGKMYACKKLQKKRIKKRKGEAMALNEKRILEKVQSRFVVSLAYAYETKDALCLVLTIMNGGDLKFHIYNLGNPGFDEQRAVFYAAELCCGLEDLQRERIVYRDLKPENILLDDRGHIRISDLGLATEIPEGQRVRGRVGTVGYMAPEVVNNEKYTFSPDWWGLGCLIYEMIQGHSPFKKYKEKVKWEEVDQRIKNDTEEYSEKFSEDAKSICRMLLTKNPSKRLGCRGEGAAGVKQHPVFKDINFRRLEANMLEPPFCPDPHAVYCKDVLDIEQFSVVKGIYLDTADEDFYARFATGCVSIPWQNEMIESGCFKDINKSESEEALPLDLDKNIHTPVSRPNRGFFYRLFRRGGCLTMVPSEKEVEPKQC

Block 1
SMILES: CN(c1ccnc(CNc2nc(Nc3ccc4c(c3)CC(=O)N4)ncc2C(F)(F)F)n1)S(C)(=O)=O
Effect on: cell-free assay
Technique: competition with immobilised ligand
Concentration: 1 µM
target | remaining binding
SIK3 (Homo sapiens, UniProt Q9Y2K2) | 82%
GRK4 (Homo sapiens, UniProt P32298) | 10%
EPHA3 (Homo sapiens, UniProt P29320) | 72%
TBK1 (Homo sapiens, UniProt Q9UHD2) | 21%
TAOK2 (Homo sapiens, UniProt Q9UL54) | 58%

Block 2
Target: Sal-like protein 4, full length isoform B (SALL4, Homo sapiens, UniProt Q9UJQ4-2, residues 1-616)
Technique: universal PBM
Form: double-stranded DNA, one strand shown
Sample: in vitro
Concentration: not given
Setting: 8-mer, flanks averaged, mean of replicates
Reading: higher = stronger binding
Strand | E-score
GTGCGCCA | -0.203
ACCTGTTA | 0.0749
ACCGGGAG | -0.233
CGGACAAC | -0.0721
AACGTTCG | -0.0908
TCCGCAAA | 0.0644
CATTATGA | 0.363
ACTGCTAT | -0.00194

Block 3
Target: CEP164, C-terminal peptide (human)
Technique: DHFR complementation, deep sequencing
Sample: yeast
Setting: single substitutions, model-inferred values
Reference: wild type
Reading: higher = weaker binding
Parent: PDZK1, PDZ domain 2 (human); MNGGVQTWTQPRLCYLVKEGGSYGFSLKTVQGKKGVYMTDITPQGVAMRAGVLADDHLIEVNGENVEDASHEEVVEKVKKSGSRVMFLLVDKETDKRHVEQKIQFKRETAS; partner HNRVKVYRF
Change | binding free energy change
A69H | -0.188 kcal/mol
A47M | 2.08 kcal/mol
S111N | -0.0398 kcal/mol
V61Y | 1.04 kcal/mol
G20R | 0.109 kcal/mol
G3P | 0.0236 kcal/mol
K80D | 0.592 kcal/mol
F87Q | 1.55 kcal/mol

Block 4
Target: Ephrin type-A receptor 2 (EPHA2, Homo sapiens, UniProt P29317)
Sequence of UniProt P29317 (whole entry, looked up): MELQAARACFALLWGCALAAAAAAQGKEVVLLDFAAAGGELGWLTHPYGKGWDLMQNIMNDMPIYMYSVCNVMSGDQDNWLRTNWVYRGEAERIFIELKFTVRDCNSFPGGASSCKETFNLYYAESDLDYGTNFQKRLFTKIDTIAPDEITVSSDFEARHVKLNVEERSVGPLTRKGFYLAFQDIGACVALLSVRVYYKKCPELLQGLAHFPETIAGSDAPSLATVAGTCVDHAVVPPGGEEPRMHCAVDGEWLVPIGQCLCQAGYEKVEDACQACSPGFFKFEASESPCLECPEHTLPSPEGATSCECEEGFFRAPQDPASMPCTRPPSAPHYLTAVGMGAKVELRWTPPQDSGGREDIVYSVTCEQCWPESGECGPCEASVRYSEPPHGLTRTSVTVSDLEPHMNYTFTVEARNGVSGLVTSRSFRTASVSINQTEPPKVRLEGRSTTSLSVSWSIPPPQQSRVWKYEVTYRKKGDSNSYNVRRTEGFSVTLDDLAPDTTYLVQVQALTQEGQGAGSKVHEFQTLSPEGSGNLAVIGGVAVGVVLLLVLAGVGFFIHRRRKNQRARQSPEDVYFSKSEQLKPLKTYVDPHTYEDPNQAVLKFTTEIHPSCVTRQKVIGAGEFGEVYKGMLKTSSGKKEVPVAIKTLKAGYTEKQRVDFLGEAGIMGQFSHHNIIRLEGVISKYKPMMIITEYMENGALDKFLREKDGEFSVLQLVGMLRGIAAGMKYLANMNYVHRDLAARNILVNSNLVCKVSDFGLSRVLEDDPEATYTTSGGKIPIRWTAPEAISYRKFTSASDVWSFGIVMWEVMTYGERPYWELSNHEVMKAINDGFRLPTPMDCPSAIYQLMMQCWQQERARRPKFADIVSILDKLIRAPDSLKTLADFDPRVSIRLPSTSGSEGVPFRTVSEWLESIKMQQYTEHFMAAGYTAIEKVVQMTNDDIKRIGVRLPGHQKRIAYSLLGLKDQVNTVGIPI
Effect on: enzyme activity
Action: inhibitor
Concentration: 0.5 µM
Reference: control
Compound | remaining activity [%]
COc1cc2nccc(Oc3ccc(NC(=S)NC(=O)c4ccccc4C)cc3)c2cc1OC | 86.9
Nc1ccc2ncnc(NCCc3ccc(Oc4ccccc4)cc3)c2c1 | 103
O=C1NC(=O)C(c2cn(CCCO)c3ncccc23)=C1c1cnccn1 | 105
Cn1sc(=O)n(Cc2ccccc2)c1=O | 96.5
COc1ccc(C(=O)Nc2sc3c(c2C(N)=O)CCCC3)cc1OC | 102
CCOC(=O)c1c(C)[nH]c(/C=C2\C(=O)Nc3ccccc32)c1C | 105
Cc1ccc(NC(=O)c2ccc(CN3CCN(C)CC3)cc2)cc1Nc1nc(-c2cccnc2)cs1 | 91.2
CN(C)c1ccc(C=C2C(=O)Nc3ccccc32)cc1 | 107
O=C(O)c1ccc2c3c1cccc3c(=O)n1c3ccccc3nc21 | 102
CO[C@H]1C[C@@H]2CC[C@@H](C)[C@@](O)(O2)C(=O)C(=O)N2CCCC[C@H]2C(=O)O[C@H]([C@H](C)C[C@@H]2CC[C@@H](O)[C@H](OC)C2)CC(=O)[C@H](C)/C=C(\C)[C@@H](O)[C@@H](OC)C(=O)[C@H](C)C[C@H](C)/C=C/C=C/C=C/1C | 107
Cn1c2ccccc2c2c3c(c4c5ccccc5n(CCC#N)c4c21)CNC3=O | 92.5
Cc1cccc(-c2[nH]c(C(C)(C)C)nc2-c2ccc3c(c2)OCO3)n1 | 99.2
CNC(=O)c1cc(Oc2ccc(NC(=O)Nc3ccc(Cl)c(C(F)(F)F)c3)cc2)ccn1 | 83.8
N#CC(C#N)=C(N)/C(C#N)=C/c1ccc(O)cc1 | 100

Some of these lines once more (block 3):
Change | binding free energy change
G20R | 0.109 kcal/mol
F87Q | 1.55 kcal/mol
V61Y | 1.04 kcal/mol
